Measurements gathered from unrelated publications.
Protocols differ between the studies behind these lines. Values joined by “and” are separate records of one study, mostly repeats; a detail may differ. ± marks the error that the study gave.

Compound | test | system | setting | how to read | endpoint | result
Cc1ccc(Sc2ccccc2N2CCNCC2)c(C)c1 |  | healthy adult men | oral, 40 mg single dose, treatment-emergent adverse events |  | pyrexia incidence | 16.7%
COc1c(N2C[C@@H]3CCCN[C@@H]3C2)c(F)cc2c(=O)c(C(=O)O)cn(C3CC3)c12 |  | male Hartley guinea pig, anaesthetized | intravenous infusion, 1 mg/kg, 10 min infusion, post-infusion |  | QTc interval | 305 ± 0.4 ms
Cc1nc(-c2ccc(OCC(C)C)c(C#N)c2)sc1C(=O)O |  | KM mouse, chronic hyperuricaemia model | dose not given, day 9 |  | body weight | 35 g and 29.2 g and 29.6 g and 28.4 g and 31.6 g and 32.8 g
Nc1ccn([C@@H]2O[C@H](CO)[C@@H](O)C2(F)F)c(=O)n1 | item: dFdU | human, plasma | intravenous, 1000 mg/m^2, with: after paricalcitol |  | Cmax, mean | 8100 ng/mL
CC(C)(C(=O)N1CCOc2c(C#N)cncc2C1)C(F)F | item: Dizziness | human | oral, 10 mg, CSF pharmacokinetic cohort |  | subjects with adverse event | 0%
COc1ccc2c(c1)CN(C(=O)CCN1CCC(Cc3ccccc3)CC1)CC[S@@+]2[O-] | telemetry | conscious dog | intravenous, 8 mg/kg, 0.5 h |  | diastolic blood pressure | 94 ± 24 mmHg
CCN1/C(=C/C(C)=O)Sc2ccc(F)cc21 |  | cynomolgus monkey | oral, 10 mg/kg, 0.5 h post-dose |  | systolic blood pressure | 112 ± 6 mmHg
CC(C)[C@@H](CS(=O)(=O)C(C)C)N1C(=O)[C@@](C)(CC(=O)O)C[C@H](c2cccc(Cl)c2)[C@H]1c1ccc(Cl)cc1 |  | FVB Abcg2-/- mice, plasma | intravenous, 20 mg/kg |  | volume of distribution | 0.504 L/kg
C[C@@]1(c2cc(NC(=O)c3ccc(C#N)cn3)ccc2F)C=CSC(N)=N1 |  | young male humans, plasma | oral, 1 mg, single dose |  | dose-normalised AUC(0-t) | 61.6 ng·h/mL
CO/N=C(\C(=O)N[C@@H]1C(=O)N2C(C(=O)[O-])=C(C[N+]3(C)CCCC3)CS[C@H]12)c1csc(N)n1 |  | human whole blood | concentration not given, 48 h, 4 °C |  | deviation from nominal concentration | 5.6%
CNC(=O)c1ccc(NS(=O)(=O)c2cc(Cl)cc(Cl)c2O)c(Cl)c1 | colloidal aggregate formation, dynamic light scattering | 50 mM potassium phosphate buffer | 200 µM, pH 7.0, 1% DMSO | higher = more aggregation | DLS scattered light intensity | 579000 counts/s
COc1ccnc(C(=O)O)c1O | soil adsorption | clay loam soil | pH 7.2, organic carbon 4.4 % |  | Freundlich coefficient KF | 171 mL/g
Cc1cc2c(cc1CCNS(=O)(=O)c1ccsc1C(=O)O)CCCC2 | colloidal aggregate formation, dynamic light scattering | 50 mM potassium phosphate buffer | 200 µM, pH 7.0, 1% DMSO | higher = more aggregation | DLS scattered light intensity | 411000 counts/s
C[C@@H](Cn1ccc(-c2ccc(C#N)c(Cl)c2)n1)NC(=O)c1cc([C@@H](C)O)[nH]n1 |  | human, fasted, plasma | oral tablet, 300 mg, geometric mean |  | AUC(0-tlast) | 2180 ng·h/mL
O=C(c1nc2n(n1)[C@H](c1ccccc1)C[C@@H]2F)C1CC1 |  | human | 5 mg single dose, mean |  | fraction excreted in urine 0-72 h | 0.18%
O=C(Nc1nc2cccc(-c3ccc(CN4CCS(=O)(=O)CC4)cc3)n2n1)C1CC1 | item: diarrhoea | human rheumatoid arthritis patients | oral, 75 mg once daily, 4 weeks, regardless of relatedness |  | treatment-emergent adverse events | 0%
O=c1[nH]c(=O)n([C@@H]2O[C@H](CO)[C@@H](O)[C@@H]2F)cc1CCCCC[18F] |  | nude mice, tumour-bearing, blood | dose not given, 2 h |  | blood radioactivity remaining | 0.16 ± 0.05 %ID/g
CCc1cc(C(=O)NC)c2nccc(N3CCc4c(cc(Cn5ccnc5)cc4-c4cn(C)nc4C(F)(F)F)C3=O)c2c1 | item: HDW | Sprague Dawley rat | oral, 100 mg/kg once daily, 7 days | baseline: vehicle | change in clinical chemistry or haematology parameter | 8.04%
Cn1cc(Nc2nccc(-c3ccc4c(c3)CN(C3COC3)CC[C@H]4NC(=O)c3cn(C(C)(C)C)nn3)n2)cn1 | item: CD8+ T cell count | human, clinical trial, whole blood | 150 mg twice daily, follow-up |  | percent change from baseline | 0.36%

Compound | test | system | setting | how to read | endpoint | result
FC(F)(F)c1ccc(CNc2ccc(Cc3c[nH]c4ncc(Cl)cc34)cn2)cn1 |  | patients with advanced solid tumours | oral, 1000 mg/day, non-TGCT cohort, all grades |  | dry mouth incidence | 4%
Cl.[2H]C([2H])([2H])CC(=O)c1cnc(NC(=O)C2CC2)cc1Nc1cccc(-c2ncn(C([2H])([2H])[2H])n2)c1OC |  | human, fed, plasma | oral, 25 mg, single dose, liquid formulation |  | CL/F | 13.6 L/h
CCOc1c([C@H](C)n2nc(C)c3c(N)ncnc32)cc(Cl)c(F)c1[C@@H]1CNC(=O)C1 | item: 30 < ΔQTcF ≤ 60 ms | previously treated B-cell malignancy | oral, 30 mg once daily, baseline QTcF ≤450 ms |  | share of patients | 4.2%
N#Cc1ccc2c(c1)[C@H]1CCCN(C(=O)c3ccc4[nH]cnc4c3)[C@H]1C2 |  | human females | 40 mg, day 7 |  | SHBG level | 32.2 nmol/L
CNCCOC12CC3(C)CC(C)(CC(Cn4ncc(-c5ccc(N6CCc7cccc(C(=O)Nc8nc9ccccc9s8)c7C6)nc5C(=O)O)c4C)(C3)C1)C2 |  | beagle dog, male, anaesthetised | intravenous bolus, 0.03 mg/kg, 45 min | baseline: baseline | PR interval change | -3 ms
CC(C)CCC[C@@H](C)[C@H]1CC[C@H]2[C@@H]3C(O)CC4=CC(=O)CC[C@]4(C)[C@H]3CC[C@]12C (some centres unmarked) |  | human, plasma | endogenous baseline diurnal |  | daily mean concentration | 64.8 ± 14.1 nM
Fc1ccc([C@@H]2CCNC[C@H]2COc2ccc3c(c2)OCO3)cc1 |  | human, CYP2D6 normal metabolizers, plasma | oral, 20 mg, steady state |  | peak-trough fluctuation | 78%
CC(C)NCCCC[C@@H]1NC(=O)[C@H](Cc2ccc(O)cc2)NC(=O)[C@H](Cc2ccccc2)NC(=O)CC[C@H](C(=O)N[C@@H](CCCCNC(C)C)C(=O)N[C@@H](CCCCNC(=O)[C@H](CCC(=O)O)NC(=O)[C@H](CCC(=O)O)NC(=O)[C@H](CCC(=O)O)NC(=O)CN2CCN(CC(=O)O)CCN(CC(=O)O)CCN(CC(=O)O)CC2)C(N)=O)NC(=O)CNC(=O)[C@H](Cc2ccc3ccccc3c2)NC(=O)[C@@H](CCCNC(=N)N)NC1=O [gallium-68 labelled] |  | mouse with Daudi xenograft, liver | intravenous, 1 h |  | tissue uptake | 0.57 %ID/g
Cc1ccc(C)c(OCCCC(C)(C)C(=O)O)c1 |  | human, plasma | oral, dose not given, day 15 predose, mean |  | trough plasma concentration | 2030 ng/mL
O=C(CCCN1CC=C(n2c(=O)[nH]c3ccccc32)CC1)c1ccc(F)cc1 |  | male Hartley guinea pig, anaesthetized | intravenous infusion, 0.1 mg/kg, 10 min infusion, post-infusion |  | QTc interval | 340 ± 0.9 ms
O=C(O)CCC(=O)O.[2H]C([2H])([2H])Oc1cc(C)c2[nH]ccc2c1CN1CC[C@@H](C2CC2)C[C@H]1c1ccc(C(=O)O)cc1 | multiple ascending dose | healthy Chinese subjects | 100 mg twice daily |  | subjects with elevated LDL TEAE | 0%
CC1(C(=O)O)CCC(C(=O)Nc2ccc(Nc3ccccc3)cc2)C1(C)C (centres unmarked) | haemolysis | sheep erythrocytes | 1 h, pH 7.5 |  | HC50 | > 128 µg/mL
CCCOc1ccc(-c2ccc(C#N)cc2)cc1 | item: compound | human pregnant women, male fetuses, maternal serum | dose not given, paired maternal-cord samples, mean |  | concentration | 1.14 ng/mL
Cn1ncc(S(=O)(=O)NC(c2ccccc2)c2ccc(Cl)cc2Cl)c1C(=O)O (centres unmarked) | colloidal aggregate formation, dynamic light scattering | 50 mM potassium phosphate buffer | 200 µM, pH 7.0, 1% DMSO | higher = more aggregation | DLS scattered light intensity | 539000 counts/s
CCO[C@H]1CCN(Cc2c(OC)cc(C)c3[nH]ccc23)[C@H](c2ccc(C(=O)O)cc2)C1 |  | PNH patients, active haemolysis | oral, 25 mg, 4 weeks, treatment |  | incidence of flatulence | 0%
C[C@@H](Oc1ccc(S(C)(=O)=O)cc1C(=O)N1C[C@@H]2C[C@]2(c2cc(C(F)(F)F)on2)C1)C(F)(F)F |  | elderly humans, urine | oral, 50 mg once daily, 0-24 h, multiple dose, geometric mean |  | fraction excreted in urine at steady state | 6.68%
COc1ccc(C(=O)O)cc1NC(=O)/C=C/c1ccc(-c2ccccc2C)cc1 | haemolysis | sheep erythrocytes | 1 h, pH 7.5 |  | HC50 | > 128 µg/mL
Cc1ccc([C@@H]2O[C@H](CO)[C@@H](O)[C@H](O)[C@H]2O)cc1Cc1ccc(-c2ccc(F)cc2)s1 |  | Japanese type 2 diabetes patients | 400 mg, day 16, 24 h urine collection | baseline: baseline | urinary chloride excretion change | 7.08 mEq
C[C@@H](N)C1CCN(S(=O)(=O)c2cccc3cnccc23)CC1 |  | healthy volunteers, fasted, plasma | oral, 25 mg |  | CL/F | 7420 L/h

Compound | test | system | setting | how to read | endpoint | result
CC1(C)CCc2sc(CNS(=O)(=O)c3occc3C(=O)O)cc2C1 | colloidal aggregate formation, dynamic light scattering | 50 mM potassium phosphate buffer | 200 µM, pH 7.0, 1% DMSO | higher = more aggregation | DLS scattered light intensity | 477000 counts/s
CNC(=O)c1ccc(-c2cnc3ncc(Cc4ccc5ncccc5c4)n3n2)cc1F | phase 1 clinical trial, item: peripheral edema | other expansion cohort | oral, 600 mg twice daily, grade 3 or 4 |  | adverse event incidence | 0%
COCCOc1cnc2ccn([C@H](C)c3nnc4c(F)cc(-c5cnn(C)c5)cn34)c(=O)c2c1 |  | patients, plasma | oral, 150 mg once daily, day 1 |  | Cmax | 2730 ng/mL
Cn1c(C(F)(F)F)cc(=O)n(-c2cc(Oc3cccnc3OCC(=O)O)c(Cl)cc2F)c1=O |  | Crl:CD(SD) rats, male, plasma | oral diet, 300 ppm in diet, day 1, 90-day toxicity study |  | AUC(0-24 h) | 7600 ng·h/mL
CC(C)[C@H](N)C(=O)NCCCS(=O)(=O)O |  | human both sexes, plasma | oral, 265 mg once daily, day 1, fed tablet |  | AUC(0-12) | 10300 ng·h/mL
N#C[C@@]1(c2ccc3c(N)ncnn23)O[C@H](CO)[C@@H](O)[C@H]1O |  | dog, plasma | intravenous, 2 mg/kg |  | MRT(0-inf) | 4.03 h
CN1C[C@H](COc2nccc3c(NCc4ccco4)cc(Cl)nc23)OC1=O |  | rabbit NZW female, isolated Langendorff heart | 3 µM, 15 min |  | QRS interval | 30 ms
COc1cc(C(=O)N2CCC3(CC2)CC(=O)c2c(cnn2C(C)C)C3)cc(-c2ccc(C(=O)O)cc2)n1 | item: HDL cholesterol | human, fasting serum | 3 mg every 12 h, day 13, adjusted geometric mean | baseline: baseline | percentage change from baseline | -3.4%
NC1(C(=O)N[C@@H](CCO)c2ccc(Cl)cc2)CCN(c2nc[nH]c3nccc2-3)CC1 |  | metastatic CRPC patients | dose not given, any grade, treatment-related, all doses, with: enzalutamide 160 mg daily |  | incidence of Diarrhoea | 66.7%
C[C@@H](Oc1ccc(S(C)(=O)=O)cc1C(=O)N1C[C@@H]2C[C@]2(c2cc(C(F)(F)F)on2)C1)C(F)(F)F |  | human | oral plus intravenous microtracer, dose not given |  | subjects with related eye disorders | 16.7%
CCC1CC1(NS(=O)(=O)c1cccc(Cl)c1O)c1ccc(Cl)cc1 (centres unmarked) | colloidal aggregate formation, dynamic light scattering | 50 mM potassium phosphate buffer | 200 µM, pH 7.0, 1% DMSO | higher = more aggregation | DLS scattered light intensity | 644000 counts/s
CCN1CCN(Cc2ccc(NC(=O)c3ccc(C)c(NC(=O)c4cncc(-c5cccs5)c4)c3)cc2C(F)(F)F)CC1 |  | C57BL/6 mice, epithelial lining fluid | intraperitoneal, 10 mg/kg |  | AUC(0-t) | 4140 ng·h/mL
CCc1c(-c2ccccc2)c(-c2ccccc2)nn1-c1ccccc1-c1cccc(OCC(=O)O)c1 |  | Sprague-Dawley rat | intravenous |  | terminal half-life | 2.09 h and 1.77 h and 1.46 h
CNC(=O)c1ccc(-c2cnc3ncc(Cc4ccc5ncccc5c4)n3n2)cc1F |  | human severe hepatic impairment | oral, 200 mg single dose, adjusted geometric mean |  | unbound AUC(0-inf) | 324 ng·h/mL
N#Cc1ccccc1CSCCNC(=O)C1(C(=O)O)CC=CCC1 (centres unmarked) | colloidal aggregate formation, dynamic light scattering | 50 mM potassium phosphate buffer | 200 µM, pH 7.0, 1% DMSO | higher = more aggregation | DLS scattered light intensity | 546000 counts/s
O=C(O)CC[C@H](NC(=O)N[C@@H](CCCCNC(=O)[C@H](Cc1ccc2ccccc2c1)NC(=O)[C@H]1CC[C@H](CNC(=O)CN2CCN(CC(=O)O)CCN(CC(=O)O)CCN(CC(=O)O)CC2)CC1)C(=O)O)C(=O)O |  | male BALB/c nude mice, LS174T-PSMA xenografts, spleen | intravenous, 0.3 nmol, 2 h, radiolabelled (111In or 99mTc) | baseline: tumour over spleen | tumour-to-tissue ratio | 43.5 ± 25
CCc1nc(C(N)=O)c(Nc2ccc(N3CCC(N4CCN(C)CC4)CC3)c(OC)c2)nc1NC1CCOCC1 |  | mouse plasma | 15 ng/mL, 6 h, 25 °C |  | bench-top stability accuracy | 94.3%
Cc1ccc(C(=O)N(CCCN)C(c2nc3snc(C)c3c(=O)n2Cc2ccccc2)C(C)C)cc1 (centres unmarked) | pneumonia grade ≥3 (CTCAE) | human patients | intravenous, 16 mg/day |  | patients with adverse event | 0%

Repeated from above:
Compound | test | system | setting | how to read | endpoint | result
CC(C)(C(=O)N1CCOc2c(C#N)cncc2C1)C(F)F | item: Dizziness | human | oral, 10 mg, CSF pharmacokinetic cohort |  | subjects with adverse event | 0%
COc1ccc2c(c1)CN(C(=O)CCN1CCC(Cc3ccccc3)CC1)CC[S@@+]2[O-] | telemetry | conscious dog | intravenous, 8 mg/kg, 0.5 h |  | diastolic blood pressure | 94 ± 24 mmHg
CCN1/C(=C/C(C)=O)Sc2ccc(F)cc21 |  | cynomolgus monkey | oral, 10 mg/kg, 0.5 h post-dose |  | systolic blood pressure | 112 ± 6 mmHg
